Measured values gathered from unrelated publications.
Numbered parts are unrelated; each lists some results of a single study. Positions count from the first letter of the parent shown.

Series 1
Target: Hepatocyte nuclear factor 3-alpha (Foxa1, Mus musculus, UniProt P35582, residues 1-468, full length assumed)
Method: EMSA with sequencing
Molecule type: double-stranded DNA, one strand shown
Matrix: in vitro
Tested at: 10 and 20 nM
Setting: whole designed probe, mean of two concentrations, ends assumed
Baseline: negative control set to 0
Direction: higher = stronger binding
Construct (chain): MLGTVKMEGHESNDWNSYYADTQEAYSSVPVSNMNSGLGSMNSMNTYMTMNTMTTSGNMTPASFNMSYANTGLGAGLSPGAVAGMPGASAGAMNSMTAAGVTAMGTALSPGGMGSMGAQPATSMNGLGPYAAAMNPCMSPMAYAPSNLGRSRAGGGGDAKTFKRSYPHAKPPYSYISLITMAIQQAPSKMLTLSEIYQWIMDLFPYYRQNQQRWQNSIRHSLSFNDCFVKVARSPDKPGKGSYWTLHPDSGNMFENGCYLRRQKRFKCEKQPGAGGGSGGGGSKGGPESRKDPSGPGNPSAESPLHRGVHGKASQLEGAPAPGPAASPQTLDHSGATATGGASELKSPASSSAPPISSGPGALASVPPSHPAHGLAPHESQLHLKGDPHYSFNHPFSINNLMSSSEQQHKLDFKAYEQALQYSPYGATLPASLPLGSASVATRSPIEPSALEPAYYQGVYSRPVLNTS
Sequence	normalised bound fraction
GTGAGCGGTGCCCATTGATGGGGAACTAGGCCAGCGGTTTCTTGTATAAAGGAAACAAAAGTCATATAATTCCTTTTACTAAGGTCACTGAGCATTGCAGCTTCTTCCACGATGAGAGAGTAAACAGAAGATGACTAAGTGTTTTTGACATCCAAAGTCACCCACAGCCAGAACCAGAGTCTGGGAGAAGTGTATTTTGGACATCGTGACCTCAACTATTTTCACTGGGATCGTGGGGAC	0.203 ratio
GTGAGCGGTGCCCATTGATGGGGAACATCTTACCCTTGCTGGGAGTAAACAAAGTTATAAACAGTTGTTTTAAAAAAATAGTTGGTTTCAGATGAAAAATTTCTGTATTCAATTTGTCTTGTGTACCTAGAATGCCACGGTAGCACTTCTCCCCCAGGGAAATATGTTGGACATTTCTGTTTCAGTGTACCGCCTGTCACTAATGCCATGGAAACCCAGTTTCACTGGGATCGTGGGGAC	0.169 ratio
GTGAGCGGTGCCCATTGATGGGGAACTGTCCCCAAACTAAATTAACAACTTTTTCCAAGACAAGTTCCAACACCAATTCATCCCCCAACTCCCCCGCCTCTTTTTTTTTTTTTTTTTAAAGTAATCTAGGATACCTTCATTCTCTCAGGAAAAAGGTGACATCAAATTACCTTCTCTTTTTTCTTCTCAATCTTCCAAAACCTTTTCCCAAAGTCATTTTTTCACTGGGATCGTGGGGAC	-0.0309 ratio
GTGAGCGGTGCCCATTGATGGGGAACGAGTGAGTAAGTGAGTGTGTGTGTGTGTGTGTGTGTGTGTGTGTGTGTGTGTGTGCTGGAGGTATGGCAGCTACCTCTTGCACATAATATTTGTGTGTACATATGTATATATGTGTGTGTATATATATGTGTGTATGTGTATATATACGCACATATATGTGCGTGTATGTGTGTATATACACACGTATGTGTGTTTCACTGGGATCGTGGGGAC	0.31 ratio
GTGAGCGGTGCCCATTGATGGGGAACATCTTCCCCCTCTTCCTTGCCCCACCAGCTCACCTACGGGGGTTATTTGCACAAAGGAAAATAAATAAAGCCGGCATTCGTTAACGCAGTTCACGCGCATACTGCTGTTTGCTCTGGATGAATCATGGTCCTTTGGCGACGCCAGGCTCCGGGAGAGCAAAGCACCGTGTCAGGGCCATGATCCGGGGTGGCCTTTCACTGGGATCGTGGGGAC	0.383 ratio
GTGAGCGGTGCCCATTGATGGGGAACCATCAGAGTGCCCCCAAAAGGCAGCCCGGGAAATGAGCAGGGGCGCGCTGACCTTTAGCGAGACAGCGAAGGTTATGCACATAACATTTGCTTGTTTACTTTGCAAAATAAGCAACGAGTTGGAAACTCCGAGTTTCGCCTGCGCCTCCGCGCACTTAAAAAACAACAACAGGAACCAGAGGCTGCCGGTCTTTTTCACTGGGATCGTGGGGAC	0.453 ratio
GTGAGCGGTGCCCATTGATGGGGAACCCTCTGACTCACCCTTCCTAGTGCCACCCAAGTTTCATCTGCACCATTGCTTACACATAATACAAGTACTTTATTTACTTACGCATTTGTTAATGTTTGCTCAGCTGTCTTGGTGCCTTTGTGTCTTTCACTGTGCTTTTAATTAGCTCGGCTGATTCTAAGAGTGGAGGTAAGCCAAGGTTTGAACCAGGTGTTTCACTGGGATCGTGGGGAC	0.518 ratio
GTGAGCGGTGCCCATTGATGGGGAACAGGACTAGAGATGGAAAAGTGGAGACCTCGGGAGAGAAAAGTAAAAATAGGTGAGAATGTTCCATCTGAATCCCTGATGGGGACTGTGGGGCTAGATTACTTAAGGTTCTCCTTTGGGGAGGGCAGACAAGAACCAGTCCCAGCTGGGACTCTGGTGCAGAGGGATGGAAGGTGATCGTTTTGTGTGAGTCTCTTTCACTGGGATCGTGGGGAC	0.0238 ratio

Series 2
Target: CREB5, bZIP domain (human)
Method: DHFR protein complementation
Matrix: yeast
Setting: single substitutions, most at no-binding floor
Baseline: wild-type JUN-FOS pair
Direction: higher = stronger binding
Starting sequence: JUN, bZIP domain (human); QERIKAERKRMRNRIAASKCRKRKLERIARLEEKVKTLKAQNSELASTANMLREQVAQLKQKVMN; partner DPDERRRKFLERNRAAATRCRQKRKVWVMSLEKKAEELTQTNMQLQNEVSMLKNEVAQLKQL
Change	binding fitness [natural log]
A40P	-1.44
A49E	-1.25
A46I	-0.207
E32P	-1.28
S43V	-0.377
S47W	-0.503
L38E	-1.4
Q41Y	-1.42
V35H	-1.34
L38Y	-1.39
A49K	-0.506
L31S	-1.22
A40N	-0.324
K39Q	-0.277
S43W	-0.516
R53H	-0.948

Series 3
Target: CCNE1, cyclin fold, Cln2 fusion (human)
Method: yeast growth competition, sequencing
Matrix: yeast
Setting: weak parent motif
Baseline: not given
Direction: higher = stronger binding
Starting sequence: ITGB3BP docking peptide (human); MPVKRSLKLDGLL
Change	normalised enrichment score
R5A	0.0937
R5A L7A	0.0205
G11A	-0.0737
L9F	1.26
R5K	0.117
L12A	0.244
S6A	0.706
L13A	0.502
P2A	1.13
L7A	1.05

Series 4
Target: ABI1, truncated, D143A, DHFR fusion (Arabidopsis thaliana)
Method: DHFR PCA, deep sequencing
Matrix: yeast
Setting: methotrexate growth selection, single substitutions
With: (+)-ABA 200 µM
Baseline: wild-type fitted maximum
Direction: higher = stronger binding
Starting sequence: PYL1, truncated, DHFR fusion (Arabidopsis thaliana); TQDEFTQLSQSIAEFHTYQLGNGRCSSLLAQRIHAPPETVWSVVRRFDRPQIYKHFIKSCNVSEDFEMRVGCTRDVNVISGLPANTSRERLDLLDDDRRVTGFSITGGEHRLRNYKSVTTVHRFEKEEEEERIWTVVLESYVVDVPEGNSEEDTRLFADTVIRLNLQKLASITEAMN; partner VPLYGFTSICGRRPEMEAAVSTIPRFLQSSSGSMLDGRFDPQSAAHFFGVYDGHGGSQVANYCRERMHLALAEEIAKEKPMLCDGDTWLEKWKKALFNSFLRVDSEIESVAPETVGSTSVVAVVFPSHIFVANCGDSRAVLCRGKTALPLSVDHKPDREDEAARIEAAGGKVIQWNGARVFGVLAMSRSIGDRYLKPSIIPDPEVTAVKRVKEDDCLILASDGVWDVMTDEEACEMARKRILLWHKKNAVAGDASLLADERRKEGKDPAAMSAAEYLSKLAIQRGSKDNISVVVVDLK
Change	relative binding score [%]
A30T	104
L169E	9.36
L166W	-0.322
A13H	99.6
C72M	99.4
Y18L	82.9
Q7H	96.6
I33W	-1.37
Y141E	7.61
D92N	82.4
Y18M	84.5
I57A	66.6
A30I	97.5
P83Q	69
T86V	92.4
V136T	90.4
G148P	71.7

Series 5
Target: Interferon regulatory factor 5, full length, phosphomimetic (IRF5, Homo sapiens, UniProt Q13568-2, residues 1-514, K96S/S451D/S453D/S456D/S462D)
Method: protein-binding microarray
Molecule type: double-stranded DNA, one strand shown
Matrix: in vitro
Tested at: 250 nM
Setting: 60-bp whole probe
With: salmon DNA 0.4 mg/ml
Baseline: random background probes
Direction: higher = stronger binding
Shared flanks, not repeated: GCCTAGCAC … GTCTTGATTCGCTTGACGCTGCTG
Sequence	log fluorescence [z-score]
TACTGCTGGAGCTCAAGAGCGTGCTAG	-0.837
GACGATTCCAGTTTCGTGACGTGCTAG	2.38
TCATTTCTCTATTGCTTACTGTGCTAG	1.88
GACGGACTGGACTTGCGGGACGTGCTA	-0.262
TTAGATTTCAGTGTCGATTAGTGCTAG	1.94
GACGATATCCGGTATCGAGACGTGCTA	1.61
TCACGGGCTTCTTTTTCTACTGTGCTA	0.924
GACGCTTTCGGGACTGGGGACGTGCTA	5.81
CTTTAACTCATTCTCTGCTTGTGCTAG	0.623
GACGTACTGGGTCTCGGGACGTGCTAG	-0.56
TTCGATATCGGGTATCGATTAGTGCTA	6.44
TTAGGACTGGGACTGGGTAAGTGCTAG	-0.802
GACGGTCTCAGTTTCGAGACGTGCTAG	4.49
TTAGAACTGAGTATAGATTAGTGCTAG	-0.139
TCTGGGCCTCCATCATCTGTGTGCTAG	-0.447
TTAGGACAGGACTTTCGGTTAGTGCTA	9.42
ACCTGTTCCCTCATCAGGCTGTGCTAG	-0.148
TCATCTGTCCCTCTGTGACTGTGCTAG	0.0347
TCATTTTTTTCTTTTATACTGTGCTAG	1.82
TCAAATCTCTTTCCTTAACTGTGCTAG	1.09
ACTTTTTTCTGATTGAATCTGTGCTAG	1.82
TCAGTTGTGATTCTTTCACTGTGCTAG	1.72
GCCGATATCGGGACTGGAGACGTGCTA	1.47
TTAGGTATCGGCTTCGGTTAGTGCTAG	3.84
TTACATATCAGTCTCGATTAGTGCTAG	2.43

Further values, each from its own experiment
Substance	target	assay	test system	conditions	how to read	endpoint	value
PhoQ, residues 284 288 289 292 302 303 NLALSC	PhoP, residues 12 14 15 18 19 LHHSG (Escherichia coli, UniProt P23836)	Sort-seq, measured: YFP reporter	E. coli	PhoQ-PhoP variant library, with: 10 µM Mg2+	baseline: high Mg2+ state, higher = stronger signaling	fold induction	1.08
